Measurements gathered from unrelated publications.
Each line is one published result; not all experiments were run side by side. Several values in a cell are separate wells, animals, samples, runs or records.
LYN: Tyrosine-protein kinase Lyn (LYN, Homo sapiens, UniProt P07948)
LYN isoform A: Tyrosine-protein kinase Lyn, isoform A (LYN, Homo sapiens, UniProt P07948)
LYN isoform B: Tyrosine-protein kinase Lyn, isoform B (LYN, Homo sapiens, UniProt P07948)

SMILES = O=C(Cc1ccc(OCc2ccccc2)cc1)NC1(C(=O)O)CCN(C(=O)c2ccc(-c3cccc(Cl)c3)cc2)CC1; target = LYN; test = enzyme activity, inhibitor; setting = 10 µM; endpoint = activity vs control; value = 121%
SMILES = Cc1[nH]nc2c1N=C(c1ccccc1Cl)c1cnc(N3CCOCC3)cc1N2; target = LYN isoform A; test = kinase activity, inhibitor; setting = 0.5 µM; endpoint = inhibition; value = 11.8%
SMILES = Nc1ncc(-c2cc(-c3cnn(CC(F)(F)F)c3)ncc2F)nc1C(=O)NC1CNCC(F)C1 (stereo not shown); target = LYN isoform B; test = enzyme activity; setting = 1 µM; scale = relative to: DMSO control; endpoint = remaining activity; value = 98.2%
SMILES = C=CC(=O)Nc1cccc(-c2cnc3[nH]cc(C(=O)NC(C)(C)C)c3n2)c1; target = LYN isoform A; test = kinase activity, inhibitor, kinase panel; setting = 0.1 µM; endpoint = inhibition; value = -6% and -7%
SMILES = C=CC(=O)N1CCc2ccc(-n3c(=O)ccc4cnc5ccc(-c6cnn(C)c6)cc5c43)cc21; target = LYN; test = KINOMEscan; setting = 1 µM; scale = relative to: DMSO control; endpoint = remaining binding; value = 100%
SMILES = CCN1CCN(Cc2ccc(C(=O)Nc3ccc(C)c(NCc4cnc5[nH]ccc5c4OC)c3)cc2C(F)(F)F)CC1; target = LYN; test = binding, competition with immobilised ligand; setting = 1 µM; endpoint = remaining binding; value = 0.4%
SMILES = COc1c(OCCCN2CCOCC2)ccc2c1N=C(NC(=O)c1cnc(N)nc1)N1CCN=C21; target = LYN; test = kinase activity, inhibitor; setting = 1 µM; scale = relative to: untreated control; endpoint = remaining activity; value = 101%
SMILES = COc1ccc(NC(=O)Nc2ccc3c(c2)C(=O)N(C(C)CO)CC(C)C(CN(C)Cc2ccc4c(c2)OCO4)O3)cc1 (stereo not shown); target = LYN; test = kinase activity, KinaseProfiler; setting = 0.03 µM, species human; scale = relative to: control; endpoint = remaining activity; value = 101%
SMILES = CNC1C[S+]2CC[S+]3CC[S+](C1)[Ru-4]321([N]=C=S)[n]2c3ccc(OC)cc3c3c4c(c5cc(F)c[n+]1c5c32)C(=O)NC4=O (stereo not shown); target = LYN; test = KinomeScan; setting = 0.1 µM; scale = relative to: untreated; endpoint = remaining binding; value = 96%
SMILES = N[C@H]1CC[C@H](Nc2nccc(-c3cccnc3Oc3ccc(NC(=O)NC4CC4)c4ccccc34)n2)CC1; target = LYN; test = kinobead competition pulldown; system = HEK293/HCT116 lysate mixture; setting = 10 µM, 1 h, 4 °C; scale = lower = stronger competition; endpoint = log2 LFQ intensity; value = 21.2 and 20.6 and 19.4 and 20.4
SMILES = NC(=O)C[C@H]1CCc2sc3ncnc(O[C@H]4CC[C@H](N5CCOCC5)CC4)c3c21; target = LYN; test = enzyme activity, inhibitor; setting = 10 µM; endpoint = inhibition; value = 22%
SMILES = O=C(O)CCC(=O)c1cccc(NS(=O)(=O)c2c[nH]c3ncccc23)c1; target = LYN; test = kinase activity, radiometric; setting = 10 µM; endpoint = remaining activity; value = 93%
SMILES = CCn1cc(C(=O)O)c(=O)c2c(N)c(F)c(NC3CCCCC3)cc21; target = LYN isoform B; test = kinase activity; setting = 0.1 µM, together with: ATP at Km; endpoint = inhibition; value = -0.8%
SMILES = CN1CCN(Cc2ccc(-c3ccc(CO[C@H]4CCC[C@@H]4NC(=O)c4cc(-c5cnn(C)c5)cnc4N)cc3)cc2)CC1; target = LYN isoform B; test = SelectScreen kinase profiling; setting = 0.1 µM; endpoint = inhibition; value = 11%
SMILES = Cc1cccc(O[C@H]2CCC[C@@H](C(C)CNCc3ccncc3)C2)c1 (relative stereo); target = LYN isoform A; test = kinome profiling; setting = 10 µM; endpoint = inhibition; value = -11%
SMILES = Cc1ccc(-c2c(/C=C(\C#N)C(=O)NC(C)C)n(CCCO)c3ncnc(N)c23)cc1; target = LYN; test = cell-free assay, competition with immobilised ligand; setting = 1 µM; endpoint = remaining binding; value = 93%
SMILES = CC(C)=CC1OC(C)(C)C2C=C3C(=O)C(Cl)=CC(O)C3C3C(O)C4OC4C(=O)C132 (stereo not shown); target = LYN; test = cell-free assay, competition with immobilised ligand; setting = 10 µM; endpoint = remaining binding; value = 100%
SMILES = NC(=O)[C@@H](O)C[C@H]1CCc2sc3ncnc(O[C@H]4CC[C@H](N5CCOCC5)CC4)c3c21; target = LYN; test = enzyme activity, inhibitor; setting = 10 µM; endpoint = inhibition; value = 70%
SMILES = C=CC(=O)N1Cc2nc(-c3cc(-c4cc(Cl)cnc4Cl)c(F)cc3F)n(-c3ccncn3)c2C1; target = LYN isoform B; test = kinome panel; setting = 1 µM; endpoint = inhibition; value = 12.3%
